Measurements collected from several papers.
Numbered parts are unrelated; each lists some results of a single study.

Set 1 — method: universal PBM; form: double-stranded DNA, one strand shown; medium: in vitro; tested at: 600 nM; reading: higher = stronger binding; measurement: E-score
Target: Sal-like protein 4, full length isoform A (SALL4, Homo sapiens, UniProt Q9UJQ4, residues 1-1053)
Chain of UniProt Q9UJQ4 (whole entry, looked up): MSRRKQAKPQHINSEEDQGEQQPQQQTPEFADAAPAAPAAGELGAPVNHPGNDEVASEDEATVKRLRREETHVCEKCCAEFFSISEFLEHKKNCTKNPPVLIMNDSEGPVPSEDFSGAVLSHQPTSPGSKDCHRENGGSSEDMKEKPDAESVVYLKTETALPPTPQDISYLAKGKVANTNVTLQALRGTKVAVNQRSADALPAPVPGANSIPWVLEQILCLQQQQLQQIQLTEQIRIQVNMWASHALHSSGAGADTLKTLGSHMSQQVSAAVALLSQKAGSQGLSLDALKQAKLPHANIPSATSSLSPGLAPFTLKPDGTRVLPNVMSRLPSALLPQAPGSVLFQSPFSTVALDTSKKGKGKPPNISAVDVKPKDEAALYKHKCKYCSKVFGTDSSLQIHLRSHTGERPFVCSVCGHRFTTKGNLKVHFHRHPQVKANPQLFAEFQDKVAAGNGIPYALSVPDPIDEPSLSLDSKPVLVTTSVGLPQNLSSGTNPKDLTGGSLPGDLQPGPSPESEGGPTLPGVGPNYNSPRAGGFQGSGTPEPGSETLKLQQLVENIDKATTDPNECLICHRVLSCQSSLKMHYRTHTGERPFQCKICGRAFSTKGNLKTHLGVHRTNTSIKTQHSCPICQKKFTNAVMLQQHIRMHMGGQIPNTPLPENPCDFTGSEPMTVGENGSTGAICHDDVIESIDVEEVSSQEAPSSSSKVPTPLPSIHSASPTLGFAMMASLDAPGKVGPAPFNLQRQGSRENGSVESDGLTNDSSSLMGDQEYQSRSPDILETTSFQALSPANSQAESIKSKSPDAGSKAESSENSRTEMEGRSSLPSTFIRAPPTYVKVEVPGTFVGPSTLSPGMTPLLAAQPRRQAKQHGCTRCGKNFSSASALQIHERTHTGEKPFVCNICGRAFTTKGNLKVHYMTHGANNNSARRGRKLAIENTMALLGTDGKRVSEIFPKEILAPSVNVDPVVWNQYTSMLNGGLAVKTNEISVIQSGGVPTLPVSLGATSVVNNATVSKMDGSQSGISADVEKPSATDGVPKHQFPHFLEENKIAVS
Notes: 8-mer, flanks averaged, mean of replicates
TTTTAAAA: 0.32
GGTTCGAA: -0.0329
CGCTCCAG: -0.142
ACCGGCAT: -0.105

Single results of other studies
UNK zinc fingers 1-6, GST-SBP tag: RING finger protein unkempt homolog, zinc fingers 1-6, GST-SBP tag (UNK, Homo sapiens, UniProt Q9C0B0, residues 30-357)
Chain of UniProt Q9C0B0 (30-357, looked up): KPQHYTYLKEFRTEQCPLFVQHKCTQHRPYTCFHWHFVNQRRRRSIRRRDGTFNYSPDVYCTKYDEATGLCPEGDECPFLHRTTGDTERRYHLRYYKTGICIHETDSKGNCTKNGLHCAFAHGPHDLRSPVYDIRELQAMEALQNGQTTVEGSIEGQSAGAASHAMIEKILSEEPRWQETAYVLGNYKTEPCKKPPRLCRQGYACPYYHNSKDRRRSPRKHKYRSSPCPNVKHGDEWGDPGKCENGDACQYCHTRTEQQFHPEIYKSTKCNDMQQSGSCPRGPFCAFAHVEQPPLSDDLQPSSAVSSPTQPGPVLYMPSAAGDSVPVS
GGGAGUUCUACAGUCCGACGAUCGAAAGAUUUCUCGAAUGCUGGCAGCCAAAACUGUUCUGGCUAUCAGAUACGACGCUUUUGGUGAAGAUUCCAGUUCUGCAAUGGGAAUUGAGAACAGAGCCAAAUUAGAGGCCAGGUUGACAACAGAGGAUUGAGCAUCA — bound/input enrichment (UNK zinc fingers 1-6, GST-SBP tag; RNA Bind-n-Seq; RNA, in vitro; not given, RNA with constant flanks, human and mouse sites, ends assumed; relative to: input RNA pool, higher = stronger binding): 0.196 ratio
PhoQ, residues 284 288 289 292 302 303 SMMNNA — fold induction (PhoP, residues 12 14 15 18 19 IQSYL (Escherichia coli, UniProt P23836); Sort-seq, measured: YFP reporter; E. coli; PhoQ-PhoP variant library, added: 10 µM Mg2+; relative to: high Mg2+ state, higher = stronger signaling): 15.9
YWHAE (Homo sapiens, UniProt P62258) — interaction screen (YWHAZ (Homo sapiens, UniProt P63104); cross-linking MS; hits only): cross-linked
GGGAGUUCUACAGUCCGACGAUCUUAUUUUCAGUUUGUAAUUUUUUUUUUUAAUUUACGUGUAUGUACUCACUAAGAAAGUACAUUUUCUAGGGGCUAAGGAUAUGGCUCAGUGGUAGAGCACUUGCCUAACAUACACAAAGCCAACAGAGGAUUGAGCAUCA — bound/input enrichment (UNK zinc fingers 1-6, GST-SBP tag; RNA Bind-n-Seq; RNA, in vitro; not given, RNA with constant flanks, human and mouse sites, ends assumed; relative to: input RNA pool, higher = stronger binding): 13.4 ratio

For quick reference, copied from above (set 1):
CGCTCCAG: -0.142
